Experimental data gathered from unrelated publications.
Numbered parts are unrelated; each lists some results of a single study. Substitutions count along the parent as printed.

Sample 1
Target: CCNF, cyclin fold, Cln2 fusion (human)
Technique: yeast growth competition, sequencing
Matrix: yeast
Notes: strong parent motif
Relative to: not given
Reading: higher = stronger binding
Parent: WEE1 docking peptide (human); HKTFRKLRLFDTP
Variant	normalised enrichment score
HKTFRKLRLFDTD [P13D]	2.81
HKTFRKGRLFDTP [L7G]	2.1
HKTFTKLRLFDTP [R5T]	2.39
HKTFRKLRLFDTA [P13A]	2.44
HKTFRKLELFDTP [R8E]	3.65
HKTFRKLRMFDTP [L9M]	2.19
PKTFRKLRLFDTP [H1P]	2.39
HKTFRRLRLFDTP [K6R]	3.16
HKTIRKLRLFDTP [F4I]	3.08
MKTFRKLRLFDTP [H1M]	1.85
HKTFRKLRLFETP [D11E]	2.22
HKTFRKLRLFNTP [D11N]	2.14
HKTFRKLRLFDEP [T12E]	3.75
HKTFRKLRPFDTP [L9P]	0.958
HKTFRFLRLFDTP [K6F]	0.782
HKTFRKLFLFDTP [R8F]	3.55

Sample 2
Target: Sal-like protein 4, full length isoform A (SALL4, Homo sapiens, UniProt Q9UJQ4, residues 1-1053)
Sequence of UniProt Q9UJQ4 (whole entry, looked up): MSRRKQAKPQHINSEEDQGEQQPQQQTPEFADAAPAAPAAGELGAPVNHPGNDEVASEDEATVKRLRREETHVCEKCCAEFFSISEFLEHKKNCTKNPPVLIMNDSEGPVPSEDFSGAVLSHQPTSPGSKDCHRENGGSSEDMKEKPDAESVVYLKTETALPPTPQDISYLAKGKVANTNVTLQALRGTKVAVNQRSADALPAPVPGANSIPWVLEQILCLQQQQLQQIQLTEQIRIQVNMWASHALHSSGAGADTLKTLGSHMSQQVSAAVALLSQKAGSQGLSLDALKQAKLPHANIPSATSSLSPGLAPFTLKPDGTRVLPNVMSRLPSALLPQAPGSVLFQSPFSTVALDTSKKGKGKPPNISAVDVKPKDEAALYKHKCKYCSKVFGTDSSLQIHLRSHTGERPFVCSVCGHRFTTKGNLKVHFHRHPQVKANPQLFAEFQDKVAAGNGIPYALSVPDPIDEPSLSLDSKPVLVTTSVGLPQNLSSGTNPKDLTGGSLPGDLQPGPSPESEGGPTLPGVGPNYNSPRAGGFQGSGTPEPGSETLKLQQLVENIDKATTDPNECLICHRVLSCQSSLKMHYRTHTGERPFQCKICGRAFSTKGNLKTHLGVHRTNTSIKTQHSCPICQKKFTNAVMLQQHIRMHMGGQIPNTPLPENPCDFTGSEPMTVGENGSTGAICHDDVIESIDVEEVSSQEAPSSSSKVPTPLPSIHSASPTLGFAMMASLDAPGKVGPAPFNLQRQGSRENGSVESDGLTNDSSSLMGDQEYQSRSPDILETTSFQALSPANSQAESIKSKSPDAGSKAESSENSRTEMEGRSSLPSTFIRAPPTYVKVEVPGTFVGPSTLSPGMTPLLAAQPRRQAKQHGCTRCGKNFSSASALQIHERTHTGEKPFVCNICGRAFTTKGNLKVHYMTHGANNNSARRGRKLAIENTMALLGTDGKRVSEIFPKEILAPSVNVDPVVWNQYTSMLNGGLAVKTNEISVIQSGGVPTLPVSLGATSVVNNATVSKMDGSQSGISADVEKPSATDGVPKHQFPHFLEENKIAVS
Technique: universal PBM
Form: double-stranded DNA, one strand shown
Matrix: in vitro
Tested at: 600 nM
Notes: 8-mer, flanks averaged, mean of replicates
Reading: higher = stronger binding
Sequence	E-score
TAGCTAGA	0.00154
CCCTATAC	-0.0115
CCATCCCG	-0.342
GATAACAC	0.0975
CCGTGGTC	-0.333
AGCTTCAA	0.11
ACTGATCA	0.0709
ACAACGGT	-0.13
ACCTAAGC	-0.122
AGGCCTGA	-0.152
CCTTTGTC	-0.00142
CATATCAC	0.19
AAGGACTA	0.107
CTCAGGGC	-0.177
ATTCGTTA	0.209
CCGCTCCG	-0.253
AATCATCA	0.281
GTAGCTGA	-0.111
CACACATC	-0.13
CTACACCA	0.151
TCACTGCA	0.123
AAGTCGCG	-0.0693

Sample 3
Target: RNA binding protein fox-1 homolog 2, RRM domain, GST-SBP tag (RBFOX2, Homo sapiens, UniProt O43251-10, residues 100-194)
Technique: RNA Bind-n-Seq
Form: RNA
Matrix: in vitro
Tested at: 365 nM
Notes: natural RNA segment, single round, ends assumed
Relative to: no-protein control
Reading: higher = stronger binding
Construct (chain): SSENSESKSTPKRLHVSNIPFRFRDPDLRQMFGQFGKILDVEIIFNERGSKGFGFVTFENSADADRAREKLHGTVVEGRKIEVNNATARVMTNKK
Sequence	RBNS enrichment (R)
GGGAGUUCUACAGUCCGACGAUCAUCAUGAGAAGAUGUGUAAUUUUAUACCACAUUUAUAAAACAUGAUUUUGUUUUCUACCCUUCAAGGUAAACAUUAAAAAUAAGGUGGUACUUGUGUACUUGUACAUAAAUGGAAUUCUCGGGUGCCAA	0.305
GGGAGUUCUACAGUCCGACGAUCAUAAAAUUGCCAUCAUUCUAUUUUUAUCCAAAAGUAUAAAUUUUGCUUUGGCAUGAAAAGUGGUCCUCUUGACUGCAUUAUGCAUGCGAGGAUGAAAUAAACCUAGAAGUUGGAAUUCUCGGGUGCCAA	7.54
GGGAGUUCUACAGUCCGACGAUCAGCGCAUCAGCAAGCUUGAGAGGAACGUGGAAGAGCUUAAGCGUAAAGCUGCCCAGAACUCUGGGGAGGCAGAAUAUAUCGAAAAAGUAGUAUAUUCUGUAAAACAGAAUUGGAAUUCUCGGGUGCCAA	0.508
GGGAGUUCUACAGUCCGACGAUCUCGCUGGUAUUACAUCUUUUUAAAAGCCUAUUAUAACAUGGUUAGCCUAUAAGGCAGUGUUGGUCCCCUUCUAAUAUUGGCCUCAUAAAGGGGUUCCACUGUACUUUCCGUGGAAUUCUCGGGUGCCAA	0.449
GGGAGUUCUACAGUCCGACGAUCUUCGUACAAAUGUGAAGUAUUAAUAUUAUCGCAGUAUUAUUGUUGUUAUUAUUAUUGUUAUUAUUAACAAUCUUGGGUGGGUAGUAGGAGAGCAAAAAGUAUGAAUGGGAUGGAAUUCUCGGGUGCCAA	0.76
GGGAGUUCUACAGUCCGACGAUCGCUCUAAGCUACCAAAGUUAUUCUGAAAGUAUGGGAACUGCUACAACUAACAAACAUUUGUUUCCAAGCCUGUCAUUAAGAGUCUGCAUCAAGAGAUUUGUCCUCCUUGGUGGAAUUCUCGGGUGCCAA	1.04
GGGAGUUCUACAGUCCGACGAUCCCUUGACUGCUCCUUUGGGCUGGGCCAAGGUUUGUAUGUACCACACCAUGCAUGACUCAGAUGCCCUCAGGUCCCUUUCUCUAUGGUAUGUAUACUGCUUGUGUUUGGGUUGGAAUUCUCGGGUGCCAA	1.93
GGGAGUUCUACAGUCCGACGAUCUGCUGGGGACAAUCCCGGGUAGGAAUGAUGGGAUCUAAAUGACACCGGAGGCUCUGGGGGGAGGGCAGCCUUUCAGUCAGCCCCCAUGCCUGCUGGGCUCUGGGCAGCCCUGGAAUUCUCGGGUGCCAA	1.99

Sample 4
Target: Histone acetyltransferase KAT6A, winged helix 1, GST fusion (KAT6A, Homo sapiens, UniProt Q92794, residues 1-85)
Technique: protein binding microarray
Form: double-stranded DNA, one strand shown
Matrix: in vitro
Tested at: not given
Notes: 8-mer, flanks averaged, mean of 2 arrays, mostly near background
Relative to: not given
Reading: higher = stronger binding
Target sequence (chain): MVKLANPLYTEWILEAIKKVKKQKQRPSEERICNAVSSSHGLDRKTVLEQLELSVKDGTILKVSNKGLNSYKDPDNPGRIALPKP
Sequence	E-score
TCACCGCA	0.0339
ATTTTGTC	-0.201
ACCCCGGA	0.0147
AAACTATT	-0.0323
ACATCGAA	0.115
AGAGGATC	-0.23
AGCCGCGA	0.379
TAATGCCA	-0.129
GATGCGCA	0.287
AAAATACT	-0.054
CACGAACA	-0.034
AATTCATA	0.0316
ATCAGTGG	-0.318
AACAGAAG	-0.0811
CACGGCCC	0.33
ACAAGCCG	0.323
TAATAACA	-0.0157
ACTATTAA	-0.131
AAATGACC	-0.204
AGGAGAGC	-0.0486
AAAATGGA	-0.079
AGTAAAAG	-0.153
AGGAAAGG	-0.153
AACCATTA	-0.08
ACCTCCCG	0.264

For quick reference, copied from above (sample 2):
Sequence	E-score
ACCTAAGC	-0.122
ATTCGTTA	0.209
CTACACCA	0.151
GTAGCTGA	-0.111
CACACATC	-0.13
TAGCTAGA	0.00154
AGCTTCAA	0.11
CCCTATAC	-0.0115
AAGTCGCG	-0.0693
